Published values collected from several papers.
A part holds a random share of what one study measured. Positions count from the first letter of the parent shown.

Sample 1
Target: CCND1, cyclin fold, Cln2 fusion (human)
Technique: yeast growth competition, sequencing
Medium: yeast
Setting: weak parent motif
Relative to: not given
Reading: higher = stronger binding
Starting sequence: MASTL docking peptide (human); PMIAKNLMCELDE
Change	normalised enrichment score
D12G	0.171
M2I	0.358
D12E	0.126
C9M	-0.106
A4I	0.256
D12I	-0.44
N6Q	-0.0621
E10T	-0.237
L7D	-0.174
M2K	0.302
D12W	-0.115
K5N	0.239

Sample 2
Target: Phosphate system positive regulatory protein PHO4, full length, GST-tagged (PHO4, Saccharomyces cerevisiae, UniProt P07270, residues 1-312)
Technique: competition protein-binding microarray
Molecule type: double-stranded DNA, one strand shown
Medium: in vitro
Tested at: 2 µM
Setting: whole 60-bp probe, lowest competitor level
Added: Cbf1 competitor, 0.05 µM
Reading: higher = stronger binding
Shared flanks, not repeated: … GTCTTGATTCGCTTGACGCTGCTG
Residues (chain): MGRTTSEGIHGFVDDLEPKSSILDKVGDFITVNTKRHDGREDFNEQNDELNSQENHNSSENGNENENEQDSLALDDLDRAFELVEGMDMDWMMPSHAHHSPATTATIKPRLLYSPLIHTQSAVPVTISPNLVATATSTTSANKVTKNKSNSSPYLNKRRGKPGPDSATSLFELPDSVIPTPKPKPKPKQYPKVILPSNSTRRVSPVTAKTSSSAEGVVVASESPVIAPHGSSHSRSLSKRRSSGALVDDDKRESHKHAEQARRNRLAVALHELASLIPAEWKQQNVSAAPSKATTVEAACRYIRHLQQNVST
Oligonucleotide	fluorescence intensity [a.u.]
AAAGCGGTAATTTGATACGTGGGTGCAGATATCTAT	6900
CTAACGAAGGTTTTTCACGTGAGATACAAGCCAAGT	10400
CGTCCTAGTGATTGGGTAGTGGGTGCCATGAGGAAG	7330
TCTATAATAACGTCCCACGTGAAAATACCAACCTCT	14900
GGCCCATGAACCCATCACGTTTTTCTAATGCAGGGC	12400
CGGGGTTAAGTTTGTTAGGTGGGTGGCTTGCAGCAG	5250
CTAACGAAGGTTTGGTACGTGGGTGACAAGCCAAGT	7300
CAATGTTTGTTTCCTCACGTGTGTTGGAAAAGGAAA	15700
CGTCCTAGTGATTGGAAGGTGGGTGCCATGAGGAAG	6840
CTTTCCCGATCTTGCTACGTGGGTGTAGCACATTTG	7240
GTCAATACTCTAATAGCTGTGATGAAAATCATAATA	3490

Sample 3
Target: RNA binding protein fox-1 homolog 2, RRM domain, GST-SBP tag (RBFOX2, Homo sapiens, UniProt O43251-10, residues 100-194)
Technique: RNA Bind-n-Seq
Molecule type: RNA
Medium: in vitro
Tested at: 365 nM
Setting: natural RNA segment, single round, ends assumed
Relative to: no-protein control
Reading: higher = stronger binding
Shared flanks, not repeated: GGGAGUUCUACAGUCCGACGAUC … UGGAAUUCUCGGGUGCCAA
Target sequence (chain): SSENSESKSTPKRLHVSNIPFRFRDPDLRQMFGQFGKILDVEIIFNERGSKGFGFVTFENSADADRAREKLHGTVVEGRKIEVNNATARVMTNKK
Oligonucleotide	RBNS enrichment (R)
GAGGUACAAGAGCCUGUUUACCUCAUAGAGUGUUUGGGCUCGGAAGUAAAAGUGAAGUUAUUUUGAAGAAAACAACUCAUUUCCAAGGACGACAUGACGACGUGCCUUUU	0.34
GCUCCGCCUCAGCCUUGAGAACUCCACGUGGGCUGGGUGGGAAGGUGCUGACGAUUUUCACACUGUGUUUACCACUCCAUCACCUCUCAACCUUUGCUUCGACAGGUCUU	0.337
CUUCAUAUGGACCAAGUGGCCACACACUGAAAAACCCGUAUAGCGACUCAGUGAAAUAAACAAGAGCCCCCAGUCAGAACUGUGAAACAGGGAAAUUUUGGGGUGGGAGU	0.384
UUUGAAGUCUGUACUUGAAAUCUGUCUGGAAGUGUUUCCUUGUUAGUUUUGGGUUUCUCCCCUGUCCCAAGGCUCAGAGUCUUCAUCUCCUACGUGACUGACUACAGUUG	0.469
GACUCUUGUGGAGUGACAGUUCCAAGCUGAACCAUAAAUCACUGAUGCACAAAACACUGCUAGAAGGCUCACCUCUCAAAACACGACUCUUUGCAUCACUAUUAAAGAGC	0.817
AUGAAUAGUAAGACCUAAUAAUUCCUGGCUUAAAGAAACUGAAGGAAUUACUCUUUUAGAGAAAAACACUGGAAAUUUUGCUAACACAAUACUUAAAAGUAUAUAGUUGG	0.309
GAGAUGCCCUGAGAGGGAGAGGAGGAAGCCAGAGUUGCUGUCAUCUGUGUCCCUGUCUUAGUCAGAACCUCUGUCCUUUCCUCACCAACUAACAUGUGCCAGCCAGGCAG	0.782
UUCUCACUGACCUCUUCCUAGCAGCUUAGAUAGCCUCAGACAUGACUGCCAGGAUUCCUGAUAUGCCCUGGCUUUGGAGAGUCCCUAGGGAUGCCCACUCGGGGGUGUAG	0.552
GAUGCUCCGAGAGCUACUGCAUCUGGGACUGUGUCCUUUCUCUGGGAGGCAGUCUUGUCACCUCCCAUCCAACAGUUCACAAACGGCUCAGUUCCUUCAUUCAGAUGGUU	0.696
CCUGCCUUACAGCAGGCAGGUUGUAUGGUGAGAAGAAUGAAGGCUGUUGUAGUUACAGGUGCUCUUACUGGGCUCUGCUCUAGUGUUCCACUUCCUAGAAGUUUAUCCAG	0.489

Single results of other studies
Substance	target	assay	system	setting	how to read	endpoint	value
PhoQ, residues 284 288 289 292 302 303 SSYNSA	PhoP, residues 12 14 15 18 19 QWHVF (Escherichia coli, UniProt P23836)	Sort-seq, item: YFP reporter	E. coli	PhoQ-PhoP variant library, added: 10 µM Mg2+	relative to: high Mg2+ state, higher = stronger signaling	fold induction	2.63

Excerpt of the above (sample 1):
Change	normalised enrichment score
D12W	-0.115
K5N	0.239
